Assay results from different studies.
Lines come from different studies, so protocols differ. Numbers after ± are the reported error.
Gnao1: Gnao1, AlexaFluor 532 label (Rattus norvegicus, UniProt P59215)
CIB1: CIB1 (Homo sapiens, UniProt Q99828)
B1: ftsZ (Bacillus subtilis, UniProt P17865); sequence looked up; chain MLEFETNIDGLASIKVIGVGGGGNNAVNRMIENEVQGVEYIAVNTDAQALNLSKAEVKMQIGAKLTRGLGAGANPEVGKKAAEESKEQIEEALKGADMVFVTAGMGGGTGTGAAPVIAQIAKDLGALTVGVVTRPFTFEGRKRQLQAAGGISAMKEAVDTLIVIPNDRILEIVDKNTPMLEAFREADNVLRQGVQGISDLIATPGLINLDFADVKTIMSNKGSALMGIGIATGENRAAEAAKKAISSPLLEAAIDGAQGVLMNITGGTNLSLYEVQEAADIVASASDQDVNMIFGSVINENLKDEIVVTVIATGFIEQEKDVTKPQRPSLNQSIKTHNQSVPKREPKREEPQQQNTVSRHTSQPADDTLDIPTFLRNRNKRG
B2: RGS16 (Homo sapiens, UniProt O15492); sequence looked up; chain MCRTLAAFPTTCLERAKEFKTRLGIFLHKSELGCDTGSTGKFEWGSKHSKENRNFSEDVLGWRESFDLLLSSKNGVAAFHAFLKTEFSEENLEFWLACEEFKKIRSATKLASRAHQIFEEFICSEAPKEVNIDHETHELTRMNLQTATATCFDAAQGKTRTLMEKDSYPRFLKSPAYRDLAAQASAASATLSSCSLDEPSHT
B3: RGS4 residues 52-end 52-205 del1-51 (UniProt P49799); sequence looked up; chain SQEEVKKWAESLENLINHECGLAAFKAFLKSEYSEENIDFWISCEEYKKIKSPSKLSPKAKKIYNEFISVQATKEVNLDSCTREETSRNMLEPTITCFDEAQKKIFNLMEKDSYRRFLKSRFYLDLTNPSSCGAEKQKGAKSSADCTSLVPQCA
B4: LRP6 repeats 1-2 (Homo sapiens); chain APLLLYANRRDLRLVDATNGKENATIVVGGLEDAAAVDFVFSHGLIYWSDVSEEAIKRTEFNKTESVQNVVVSGLLSPDGLACDWLGEKLYWTDSETNRIEVSNLDGSLRKVLFWQELDQPRAIALDPSSGFMYWTDWGEVPKIERAGMDGSSRFIIINSEIYWPNGLTLDYEEQKLYWADAKLNFIHKSNLDGTNRQAVVKGSLPHPFALTLFEDILYWTDWSTHSILACNKYTGEGLREIHSDIFSPMDIHAFSQQRQPNATNPCGIDNGGCSHLCLMSPVKPFYQCACPTGVKLLENGKTCKDGATELLLLARRTDLRRISLDTPDFTDIVLQLEDIRHAIAIDYDPVEGYIYWTDDEVRAIRRSFIDGSGSQFVVTAQIAHPDGIAVDWVARNLYWTDTGTDRIEVTRLNGTMRKILISEDLEEPRAIVLDPMVGYMYWTDWGEIPKIERAALDGSDRVVLVNTSLGWPNGLALDYDEGKIYWGDAKTDKIEVMNTDGTGRRVLVEDKIPHIFGFTLLGDYVYWTDWQRRSIERVHKRSAEREVIIDQLPDLMGLKATNVHRVIGSNPCAEENGGCSHLCLYRPQGLRCACPIGFELISDMKTCIVP
B5: RGS6 RGS homology domain 336-441 (Homo sapiens, UniProt P49758); sequence looked up; chain SFDEILKDQVGRDQFLRFLESEFSSENLRFWLAVQDLKKQPLQDVAKRVEEIWQEFLAPGAPSAINLDSHSYEITSQNVKDGGRYTFEDAQEHIYKLMKSDSYARF
B6: HMGB1 A box; chain MGKGDPKKPRGKMSSYAFFVQTCREEHKKKHPDASVNFSEFSKKCSERWKTMSAKEKGKFEDMAKADKARYEREMKTYIPPKGET
B7: MIF4GD K10A (Homo sapiens, UniProt A9UHW6); sequence looked up; chain MGEPSREEYAIQSFDAETQQLLKTALKDPGAVDLEKVANVIVDHSLQDCVFSKEAGRMCYAIIQAESKQAGQSVFRRGLLNRLQQEYQAREQLRARSLQGWVCYVTFICNIFDYLRVNNMPMMALVNPVYDCLFRLAQPDSLSKEEEVDCLVLQLHRVGEQLEKMNGQRMDELFVLIRDGFLLPTGLSSLAQLLLLEIIEFRAAGWKTTPAAHKYYYSEVSD
B8: TIMP1 mature (Homo sapiens, UniProt P01033); sequence looked up; chain CTCVPPHPQTAFCNSDLVIRAKFVGTPEVNQTTLYQRYEIKMTKMYKGFQALGDAADIRFVYTPAMESVCGYFHRSHNRSEEFLIAGKLQDGLLHITTCSFVAPWNSLSLAQRRGFTKTYTVGCEECTVFPCLSIPCKLQSGTHCLWTDQLLQGSEKGFQSRHLACLPREPGLCTWQSLRSQIA
B9: UGT1A9 (Homo sapiens, UniProt O60656); chain GKLLVVPMDGSHWFTMRSVVEKLILRGHEVVVVMPEVSWQLGRSLNCTVKTYSTSYTLEDLDREFKAFAHAQWKAQVRSIYSLLMGSYNDIFDLFFSNCRSLFKDKKLVEYLKESSFDAVFLDPFDNCGLIVAKYFSLPSVVFARGILCHYLEEGAQCPAPLSYVPRILLGFSDAMTFKERVRNHIMHLEEHLLCHRFFKNALEIASEILQTPVTEYDLYSHTSIWLLRTDFVLDYPKPVMPNMIFIGGINCHQGKPLPMEFEAYINASGEHGIVVFSLGSMVSEIPEKKAMAIADALGKIPQTVLWRYTGTRPSNLANNTILVKWLPQNDLLGHPMTRAFITHAGSHGVYESICNGVPMVMMPLFGDQMDNAKRMETKGAGVTLNVLEMTSEDLENALKAVINDKSYKENIMRLSSLHKDRPVEPLDLAVFWVEFVMRHKGAPHLRPAAHDLTWYQYHSLDVIGFLLAVVLTVAFITFKCCAYGYRKCLGKKGRVKKAHKSKTH
B10: TJP1 PDZ3-SH3-GuK; chain SMKLVKFRKGDSVGLRLAGGNDVGIFVAGVLEDSPAAKEGLEEGDQILRVNNVDFTNIIREEAVLFLLDLPKGEEVTILAQKKKDVYRRIVESDVGDSFYIRTHFEYEKESPYGLSFNKGEVFRVVDTLYNGKLGSWLAIRIGKNHKEVERGIIPNKNRAEQLASVQYTLPKTAGGDRADFWRFRGLRSSKRNLRKSREDLSAQPVQTKFPAYERVVLREAGFLRPVTIFGPIADVAREKLAREEPDIYQIAKSEPRDAGTDQRSSGIIRLHTIKQIIDQDKHALLDVTPNAVDRLNYAQWYPIVVFLNPDSKQGVKTMRMRLCPESRKSARKLYERSHKLRKNNHHLFTTTINLNSMN
B11: GRIK5 amino terminal domain 20-406 (Rattus norvegicus, UniProt Q63273); N-linked glycans; chain VLSSLRMAAILDDQTVCGRGERLALALAREQINGIIEVPAKARVEVDIFELQRDSQYETTDTMCQILPKGVVSVLGPSSSPASASTVSHICGEKEIPHIKVGPEETPRLQYLRFASVSLYPSNEDVSLAVSRILKSFNYPSASLICAKAECLLRLEELVRGFLISKETLSVRMLDDSRDPTPLLKEIRDDKVSTIIIDANASISHLVLRKASELGMTSAFYKYILTTMDFPILHLDGIVEDSSNILGFSMFNTSHPFYPEFVRSLNMSWRENCEASTYPGPALSAALMFDAVHVVVSAVRELNRSQEIGVKPLACTSANIWPHGTSLMNYLRMVEYDGLTGRVEFNSKGQRTNYTLRILEKSRQGHREIGVWYSNRTLAMNATTLDI

Molecule | tested on | test | test system | conditions | scale | endpoint | value
DIIRNIARHLAQVGDSMDRS (BID BH3 peptide, 20-mer (Homo sapiens)) | BCL2L1 1-200 (Homo sapiens, UniProt Q07817-1) | ITC | peptide | pH 8.0, 25 °C, one-site model |  | Kd | 0.79 µM
B1 (ftsZ) | UgtP (Bacillus subtilis, UniProt P54166) | BLI |  | pH 8.0, 30 °C, NaCl 100 mM, with UDP-glc, with: UDP-glc |  | Kd | 0.072 µM
KFKESVFENAYVIYSSMLYR (FGF14 149-168 Y158A (Homo sapiens, UniProt Q92915-2); sequence looked up) | FGF14 64-252 (Homo sapiens, UniProt Q92915-2) | SPR | peptide | 25 °C |  | Kd | 7.02 µM
B2 (RGS16) | Gnao1 | flow cytometry |  | with: GDP-AlF4- |  | Kd | 0.054 µM
SKTCGKAKVTGRWK (TNNT2 275-288 R278C (Homo sapiens, UniProt P45379-6); sequence looked up) | TPM1 (Oryctolagus cuniculus, UniProt P58772) | SPR | peptide | pH 7.0, KCl 0.1 M |  | Kd | 8.89 µM
PDPK1 (Homo sapiens, UniProt O15530) | TP53 (UniProt P04637) | MST |  |  |  | Kd | 0.006 µM
ARTKQTARKS (histone H3 2-11 (UniProt P68431); acetylated K9; sequence looked up) | MLLT1 1-148 (Homo sapiens, UniProt Q03111) | ITC | peptide | pH 7.5, 15 °C, NaCl 500 mM |  | Kd | 32.2 µM
B3 | Gnao1 | flow cytometry |  | pH 8.0, with: GDP-AlF4- |  | Kd | 0.091 µM
EDGGSFWYGAMKGLYG (designed peptide) | CIB1 | ITC | peptide | 25 °C, with: CaCl2 0.1 mM |  | Kd | 0.112 µM
B4 (LRP6 repeats 1-2) | DKK1 31-142 (Homo sapiens, UniProt O94907) | ITC |  | pH 8.0, 25 °C, NaCl 200 mM, apparent |  | Kd | 0.066 µM
psbB C terminus (Thermosynechococcus elongatus) | psb28 2-116 (Thermosynechococcus elongatus, UniProt Q8DLJ8) | NMR titration |  | slow exchange |  | Kd | 53.92 ± 0.41 µM
B5 | Gnao1 | flow cytometry |  | with: GDP-AlF4- |  | Kd | 0.478 µM
ClpP mature (Escherichia coli, UniProt P0A6G7) | clpX (Escherichia coli, UniProt P0A6H1) | peptide cleavage |  | with: ATPγS | relative to: ClpP alone, higher = faster cleavage | peptide cleavage rate | 40 fold
B6 (HMGB1 A box) | TP53 (Homo sapiens, UniProt P04637) | BLI |  | 30 °C |  | Kd | 0.00638 µM
ARTKQTARKSTG (Histone H3.1 2-13 (Homo sapiens, UniProt P68431); sequence looked up) | BIRC2 fragment (Homo sapiens) | tryptophan fluorescence titration | peptide | pH 6.8, 25 °C, NaCl 150 mM |  | Kd | 0.72 µM
B7 (MIF4GD K10A) | SLBP, phosphorylated, multiple sites (Homo sapiens, UniProt Q14493) | SPR |  | pH 7.4, 25 °C, NaCl 150 mM |  | Kd | 2.15 ± 0.9 µM
B8 (TIMP1 mature) | MMP9 proMMP-9, trimer E402A (Homo sapiens, UniProt P14780) | SPR |  | pH 7.4 |  | Kd | 0.00012 µM
B9 (UGT1A9) | COc1ccc(-c2oc3cc(OC)ccc3c(=O)c2O)cc1 | steady-state kinetics |  | pH 7.4, 37 °C |  | Vmax | 0.0087 µmol/min/mg
B10 (TJP1 PDZ3-SH3-GuK) | OCLN 383-522 S408D, fluorescent label (Homo sapiens, UniProt Q16625) | MST |  |  |  | Kd | 5.8 ± 0.2 µM
KELVALTPPSPFRD (Grm5) | Homer1 (Rattus norvegicus, UniProt Q9Z214) | ITC | peptide |  |  | Kd | 15.8 ± 1.6 µM
GP6 fragment (Homo sapiens) | collagen III Toolkit peptide III-30, hydroxyproline, C-terminal amide (Homo sapiens) | ELISA |  |  |  | Kd | 0.0032 ± 0.0003 µM
Ac-ESIQGSLMDVGMRVRKSIST-NH2 (spd1 27-46 (Schizosaccharomyces pombe, UniProt Q10585); N-acetyl, C-amide) | pcn1 1-260 (Schizosaccharomyces pombe, UniProt Q03392) | NMR titration | peptide | pH 7.4, NaCl 100 mM |  | Kd | 4000 ± 700 µM
YGIGVGW |  |  | peptide, human polyclonal IgM RF WEAK | concentration not given, 5 µg/mL mAb II-481 coated, with: RF at 50% max binding concentration |  | inhibition | 0%
B11 | Grik2 amino terminal domain 32-420 G215N/M217T, N-linked glycans (Rattus norvegicus, UniProt P42260) | AUC |  | pH 7.5, 20 °C, NaCl 200 mM, sedimentation velocity, monomer-dimer model |  | Kd | 0.011 µM
NYLAWYQ |  |  | peptide, human polyclonal IgM RF LOP | concentration not given, 5 µg/mL mAb II-481 coated, with: RF at 50% max binding concentration |  | inhibition | 20%
EDGGSFWYGAAKALYG (designed peptide) | CIB1 | ITC | peptide | 25 °C, with: CaCl2 0.1 mM |  | Kd | 1.12 µM
EDEPEIPLSPRPRP (CACNA1S 747-760 (Homo sapiens, UniProt Q13698); sequence looked up) | STAC 288-402 (Homo sapiens, UniProt Q99469) | ITC | peptide | 25 °C |  | Kd | 3.9 µM

Excerpt of the above:
Molecule | tested on | test | test system | conditions | scale | endpoint | value
DIIRNIARHLAQVGDSMDRS (BID BH3 peptide, 20-mer (Homo sapiens)) | BCL2L1 1-200 (Homo sapiens, UniProt Q07817-1) | ITC | peptide | pH 8.0, 25 °C, one-site model |  | Kd | 0.79 µM
B1 (ftsZ) | UgtP (Bacillus subtilis, UniProt P54166) | BLI |  | pH 8.0, 30 °C, NaCl 100 mM, with UDP-glc, with: UDP-glc |  | Kd | 0.072 µM
